Experimental data of several laboratories.
Parts stem from different laboratories: compare values within a part only. Substitutions count along the parent as printed.

Sample 1 — technique: protein-binding microarray; molecule type: double-stranded DNA, one strand shown; matrix: in vitro; tested at: 250 nM; setting: 60-bp whole probe; added: salmon DNA 0.4 mg/ml; relative to: random background probes; reading: higher = stronger binding; endpoint: log fluorescence; all sequences stand within: GCCTAGCAC … GTCTTGATTCGCTTGACGCTGCTG
Target: Interferon regulatory factor 7, full length, phosphomimetic (IRF7, Homo sapiens, UniProt Q92985, residues 1-503, S101K/S471D/S472D/S475D/S476D/S477D/S483D/S484D/S487D)
Target sequence (chain): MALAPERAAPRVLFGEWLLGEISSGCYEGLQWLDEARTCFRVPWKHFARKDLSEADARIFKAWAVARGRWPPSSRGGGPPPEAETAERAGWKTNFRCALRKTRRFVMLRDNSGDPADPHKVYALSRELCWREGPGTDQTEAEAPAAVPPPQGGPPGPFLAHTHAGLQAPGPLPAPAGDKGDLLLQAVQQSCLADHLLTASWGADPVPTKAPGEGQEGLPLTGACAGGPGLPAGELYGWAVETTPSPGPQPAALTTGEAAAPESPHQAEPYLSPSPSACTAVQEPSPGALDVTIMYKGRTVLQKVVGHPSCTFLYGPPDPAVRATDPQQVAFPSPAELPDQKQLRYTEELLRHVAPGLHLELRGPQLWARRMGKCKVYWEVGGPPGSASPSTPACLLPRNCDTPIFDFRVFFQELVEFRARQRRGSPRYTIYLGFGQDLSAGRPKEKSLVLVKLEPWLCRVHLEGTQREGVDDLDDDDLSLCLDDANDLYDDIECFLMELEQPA
GACGAACTGAGACTGGCGACGTGCTAG: -0.2 z-score
GACGGTCTGGACACTGGGGACGTGCTA: -0.753 z-score
TTAGGACTGGACTTTCGGTCAGTGCTA: -0.426 z-score
TTCGGTCTCGGACTGGGTTAGTGCTAG: 0.299 z-score
TTAGGACTGGGTTATCGGTTAGTGCTA: 0.251 z-score
TCAAGTTCAGTTCTCTAACTGTGCTAG: 0.833 z-score
AGATTTATCAAATGTGGGATTGTGCTA: -0.133 z-score
TCATGTTGCAAATATTGCACTGTGCTA: 0.0749 z-score
ATTGCTTCCTCTTTCACTGCGTGCTAG: 1.25 z-score
TCAGTTTTCTGGTTCCCACTGTGCTAG: 1.65 z-score
GACGGTTTCCTTCTCCTAACGTGCTAG: 3 z-score
TTAGGACTGCTTATCCCTTAGTGCTAG: -0.118 z-score
TACTCTCCAGGGTTTCTCTTTGTGCTA: 2.91 z-score
TCAGCTATACCACTCTTACTGTGCTAG: 0.0284 z-score
TTAGATCTCAGTTCCGATTAGTGCTAG: 1.21 z-score
GCATCTCGGAGATCTCGAAGCGTGCTA: 0.614 z-score
TCAGTTGTAGGTTTTCTGACTGTGCTA: -0.343 z-score
TTAGTACTGGGGACTGGGTTAGTGCTA: 0.101 z-score
GACGATATCAGTAGCGAGACGTGCTAG: -0.196 z-score

Sample 2 — technique: RNA Bind-n-Seq; molecule type: RNA; matrix: in vitro; tested at: 365 nM; relative to: no-protein control; reading: higher = stronger binding; endpoint: RBNS enrichment (R)
Target: RNA binding protein fox-1 homolog 2, RRM domain, GST-SBP tag (RBFOX2, Homo sapiens, UniProt O43251-10, residues 100-194)
Setting: natural RNA segment, single round, ends assumed
All sequences stand within: GGGAGUUCUACAGUCCGACGAUC … UGGAAUUCUCGGGUGCCAA
Residues (chain): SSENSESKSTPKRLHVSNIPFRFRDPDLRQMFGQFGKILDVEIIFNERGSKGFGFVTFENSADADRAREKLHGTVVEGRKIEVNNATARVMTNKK
UCCUAGGUGUGGACGCCCGCCUUGCCCUUUGUUAGCUUCCUGGGUUCCCAUGAACUCAGGGAUUUGUUGGAAGAUUCUCUGCAUAAUAGAUAUAUAUGUAUAUAUAUUUA: 0.857
CCUGCGGCCGGGCUGCCCUUCGCUGCCAGGACACCUGCCCCAGCGCGGCUUGGCCGCCAUCCGGGACGCUUCCAGACCACCUGCCAGCCAUCACAAGGGGAACGCAGAGG: 0.216
GACUGUAGGAUGGUUUGAACGAAAACCCAGGGCCACUGAUAGCAGUGCCCAAGAUUAUCUGUAAAGUAAUAAAAUCUGCCGAGGAGAAUGUGAAAAGAAUUUGUUCAAGG: 1.53
UGGAGAUUCUUCAGACUCGGGGGAGACUGAAUUGGAUGCCUCUCUCAUCCCAGCACACUUCUAAUAGACCCCUUCAGUCACGGAGGGAGUGCCCCAAGGUUGGACAGGCA: 0.284
AAAAUGGAAAAUAGUAAACACGGGAAUUGAUUUUAUUCUGGUUGUCUAUAAUACUUCAUUUUAAAUGUAAAUGGCCACUCUGCAUUUGCAAGGCCCGGUGGUUGACAUCU: 0.288
GCCAAGCUGGUGUCUCUAGGAGGGCCCACACAGGCACCCUGGAUCCCCCAGAGAGUAGAUUGGUGUGCUCAGGCCGCAGGCUGACUCAGAGGUAGGGCAGUGGGCUCUGC: 0.562
AAAGGUAGUGGGGGCCGGUGUGGGGCAGAGUCCUGAAGAGCCACCUCUAGGAGGCAGCCCCUAGGAGCACGCACGUUCUGUCAGUAUUACCCCACCUGUCCUAUCAGGUG: 1.43
CCUUUAAGAUUCUUUCUAGACUUAAAUUUUGUGCCAUGGCCCACUGGAUGUAGAUAUUCUACAAGGAAGUAGAAACUUUUAAUACGAAGUAAUGAUUCCUCUAAAGGGAA: 0.338

Sample 3 — target: CCND3, cyclin fold, Cln2 fusion (human); technique: yeast growth competition, sequencing; matrix: yeast; setting: weak parent motif; relative to: not given; reading: higher = stronger binding; endpoint: normalised enrichment score
Parent: HIRA docking peptide (human); SLSKRKLELEVET; partner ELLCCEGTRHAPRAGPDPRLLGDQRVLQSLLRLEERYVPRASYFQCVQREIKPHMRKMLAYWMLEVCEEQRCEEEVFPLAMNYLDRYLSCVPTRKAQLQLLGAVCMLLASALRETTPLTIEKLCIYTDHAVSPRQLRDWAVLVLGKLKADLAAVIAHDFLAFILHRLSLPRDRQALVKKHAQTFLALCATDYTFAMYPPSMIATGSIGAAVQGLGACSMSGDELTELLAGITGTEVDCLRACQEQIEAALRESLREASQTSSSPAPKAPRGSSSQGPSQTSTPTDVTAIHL
SLSKRKLELAVET [E10A]: 0.051
SLSKRKLELEAET [V11A]: 0.0419
SLSARKLELEVET [K4A]: 0.0515
SLAKRKLELEVET [S3A]: -0.0208
SLSKAKLELEVET [R5A]: 0.0385
SLSKKKLEFEVET [R5K L9F]: -0.0454
SLSKRKLALEVET [E8A]: 0.124

Sample 4 — technique: RNA Bind-n-Seq; molecule type: RNA; matrix: in vitro; tested at: 20 nM; setting: 6-mer, flanks averaged, single round; added: 150 mM KCl; relative to: input library; reading: higher = stronger binding; endpoint: 6-mer enrichment (R)
Target: TAR DNA-binding protein 43, full length, His tag (TARDBP, Homo sapiens, UniProt Q13148, residues 1-414)
GAGCCC: 0.81
CAUAGG: 0.995
UCCACG: 0.694
AACUGG: 0.955
GCUCAG: 0.898
GGGAAA: 2.29
CUUAAC: 0.562
CGGCAA: 0.924
AUAGCA: 0.669
UGUCCA: 0.649
AGUUGG: 1.27
GAUAUC: 0.6
UACUGA: 0.623
UUCCGA: 0.574
UUUGUU: 0.737
UCUGGU: 0.74
GAUUUA: 0.609
UCCACC: 0.601
UCGUAU: 0.597

Sample 5 — technique: RNAcompete; molecule type: RNA; matrix: in vitro; tested at: 20 nM; setting: 7-mer, probes averaged, single round; relative to: mean of 7-mers; reading: higher = stronger binding; endpoint: 7-mer Z-score
Target: PABPC1L2, full length, GST fusion (mouse, UniProt A0ABA7IW68)
Construct (chain): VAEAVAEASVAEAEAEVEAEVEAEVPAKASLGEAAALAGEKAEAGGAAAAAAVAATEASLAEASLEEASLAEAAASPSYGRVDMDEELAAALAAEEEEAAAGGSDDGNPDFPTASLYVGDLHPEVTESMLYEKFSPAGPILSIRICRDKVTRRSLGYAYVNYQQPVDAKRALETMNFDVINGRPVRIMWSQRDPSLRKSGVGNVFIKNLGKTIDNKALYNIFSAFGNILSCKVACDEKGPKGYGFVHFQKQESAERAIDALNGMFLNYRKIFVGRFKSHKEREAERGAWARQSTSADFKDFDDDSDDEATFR
ACUCGCU: -0.28
CAAUACA: 0.285
GGACGUU: -0.126
CUGAAUC: -0.322
CACGUGA: -0.0917
UCUGUGA: -0.311
AGCCUAU: -0.186
UUCACGA: -0.255
AAAGAUU: 1.85
UUCUAAU: -0.354
GGGGUUC: 0.122
AAGGUGG: 0.358
GAUACGA: -0.108
GAUAAUG: -0.0536
UGUCCCC: -0.371
GGGCUUA: 0.00254
UAGUGCC: -0.249
